Published values from different studies.
Protocols differ between the studies behind these lines. ± gives the spread as reported. In brackets after ≈: the same amount, converted by molar mass.

Structure (SMILES) | tested on | test | system | setting | how to read | endpoint | result
Cc1ccc(Sc2cc(NCCCO)c([N+](=O)[O-])c3nonc23)cc1 | Mus musculus | gene silencing, high-content imaging | LDR reporter GFP cells | retest run 1 | – | maximal activity | 51%
NS(=O)(=O)c1ccc(N/N=C2\C(=O)Nc3ccc(Cl)cc32)cc1 | Trypanosoma brucei | – | – | unit not given | reference: pEC50 T. brucei minus pTC50 HepG2 | selectivity | 1.1
CC(C)NCC(O)c1ccc(O)c(O)c1 (stereo not shown) | – | – | ventricular cardiomyocytes, C57BL/6 mouse | dose not given, 0.772 s | – | sarcomere length | 1.72 µm
CCn1c(=O)c(-c2cc[nH]n2)cc2c(C)nc(N)nc21 | Enterovirus A71 | histopathology | EV71-infected suckling mice, spleen | 0.25 mg/kg | direction not given | total pathology score | 1
Nc1ncnc2c1c(-c1cccc(OCc3ccccc3)c1)cn2[C@H]1C[C@@H](CN2CCC2)C1 | Trypanosoma brucei | cell growth | – | – | – | EC50 | 1820 ± 348 nM
CN[C@H](CC(C)C)C(=O)N[C@H]1C(=O)N[C@@H](CC(N)=O)C(=O)N[C@H]2C(=O)N[C@H]3C(=O)N[C@H](C(=O)N[C@H](C(=O)O)c4cc(O)cc(O)c4-c4cc3ccc4O)[C@H](O)c3ccc(c(Cl)c3)Oc3cc2cc(c3O[C@@H]2O[C@H](CO)[C@@H](O)[C@H](O)[C@H]2O[C@H]2C[C@](C)(N)[C@H](O)[C@H](C)O2)Oc2ccc(cc2Cl)[C@H]1O | Staphylococcus epidermidis | broth microdilution | methicillin-resistant isolates | – | – | MIC90 | 2 µg/mL (≈ 1.38 µM)
O=C(NCC1CCOCC1)c1ccc([C@H]2[C@@H](F)[C@@H](F)C[C@@H](F)[C@H]2F)cc1 | – | liver microsome stability | cynomolgus liver microsomes | 1 µM | – | hepatic clearance | 8.9 mL/min/kg
Cn1cc(-c2ccc(-c3cncc(Cl)c3N3CCC4(CCNC4=O)CC3)cc2)cn1 | COLO 205 | microarray, measured: IFIT3 | – | concentration not given, 2 h, gene set RIG-G | reference: untreated cells | fold change in expression | 1.52
Cc1cc(NC(=O)C2CCCN(S(=O)(=O)c3cccc4nonc34)C2)ccc1Br (stereo not shown) | Mus musculus | gene silencing, high-content imaging | LDR reporter GFP cells | retest run 2 | – | maximal activity | 35%
CC(C)n1ncc2c(C(=O)NCC3(C)CNC3)cc(C3CC3)nc21 | Enterovirus A71 | viral replication | Tainan/4643/1998 | 9000 nM | – | plaque reduction | 100%
CCCCOC(=O)Cn1c2ccc(OC)cc2c2nc3ccccc3nc21 | Mus musculus | gene silencing, high-content imaging | LDR reporter GFP cells | retest run 1 | – | maximal activity | 21%
O=C(NCCN1CCCC1=O)c1ccc([C@H]2[C@@H](F)[C@@H](F)C[C@@H](F)[C@H]2F)cc1 | – | liver microsome stability | dog liver microsomes | 1 µM | – | hepatic clearance | 7.3 mL/min/kg
CCCN(CCS(C)(=O)=O)Cc1ccc(-c2ccc3ncnc(Nc4ccc(OCc5cccc(F)c5)c(Cl)c4)c3c2)o1 | Trypanosoma brucei | – | – | unit not given | reference: pEC50 T. brucei minus pTC50 HepG2 | selectivity | > 1.7
